{"data": "Published values of several laboratories", "note": "Numbered parts are unrelated; each lists some results of a single study. Positions count from the first letter of the parent shown."}
{"data": "Block 1", "target": "TEF, bZIP domain (human)", "technique": "DHFR protein complementation", "medium": "yeast", "notes": "single substitutions, most at no-binding floor", "baseline": "wild-type JUN-FOS pair", "reading": "higher = stronger binding", "starting sequence": "JUN, bZIP domain (human); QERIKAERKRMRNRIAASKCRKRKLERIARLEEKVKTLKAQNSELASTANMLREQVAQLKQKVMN; partner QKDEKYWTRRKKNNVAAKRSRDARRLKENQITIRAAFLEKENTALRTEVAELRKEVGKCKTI"}
{"Change": "R30K", "binding fitness [natural log]": -1.51}
{"Change": "E54T", "binding fitness [natural log]": -1.26}
{"Change": "L52M", "binding fitness [natural log]": -1.38}
{"Change": "A49T", "binding fitness [natural log]": -1.22}
{"Change": "K39T", "binding fitness [natural log]": -1.5}
{"Change": "E44H", "binding fitness [natural log]": -1.44}
{"Change": "K36D", "binding fitness [natural log]": -1.37}
{"Change": "N42D", "binding fitness [natural log]": -1.57}
{"Change": "R30W", "binding fitness [natural log]": -1.44}
{"Change": "L52S", "binding fitness [natural log]": -1.51}
{"Change": "S47C", "binding fitness [natural log]": -1.39}
{"Change": "L52I", "binding fitness [natural log]": -1.42}
{"Change": "L45E", "binding fitness [natural log]": -1.57}
{"Change": "K34F", "binding fitness [natural log]": -1.58}
{"Change": "L38C", "binding fitness [natural log]": -1.47}
{"Change": "I28T", "binding fitness [natural log]": -1.5}
{"Change": "E44M", "binding fitness [natural log]": -1.5}
{"data": "Block 2", "target": "Histone acetyltransferase KAT6A, both winged helices, GST fusion (KAT6A, Homo sapiens, UniProt Q92794, residues 1-181)", "technique": "protein binding microarray", "form": "double-stranded DNA, one strand shown", "medium": "in vitro", "tested at": "not given", "notes": "8-mer, flanks averaged, mean of 2 arrays, mostly near background", "baseline": "not given", "reading": "higher = stronger binding", "Residues (chain)": "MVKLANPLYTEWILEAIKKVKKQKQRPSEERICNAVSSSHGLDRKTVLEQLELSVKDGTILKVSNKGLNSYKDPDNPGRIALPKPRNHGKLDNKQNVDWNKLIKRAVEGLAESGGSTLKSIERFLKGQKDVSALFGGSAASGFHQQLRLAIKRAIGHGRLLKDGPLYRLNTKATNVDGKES"}
{"Strand": "TGGAAGAA", "E-score": -0.126}
{"Strand": "GGCCTACA", "E-score": -0.0397}
{"Strand": "ACATACAA", "E-score": 0.062}
{"Strand": "AATGACCC", "E-score": -0.0256}
{"Strand": "AGATTAAT", "E-score": -0.118}
{"Strand": "GACTCTAC", "E-score": -0.101}
{"Strand": "GGACATTA", "E-score": 0.158}
{"Strand": "ATATGTGC", "E-score": 0.0817}
{"Strand": "CACGCTCA", "E-score": 0.0498}
{"Strand": "CAAGAGTC", "E-score": -0.115}
{"Strand": "GTATATTA", "E-score": -0.0719}
{"Strand": "AGCACCCA", "E-score": -0.174}
{"Strand": "AATGGTTA", "E-score": -0.0309}
{"Strand": "AGATCAAC", "E-score": -0.198}
{"Strand": "CATTTGGC", "E-score": -0.158}
{"Strand": "CATCATGA", "E-score": -0.218}
{"Strand": "CACGATCG", "E-score": 0.0788}
{"Strand": "AGAGTCAC", "E-score": -0.139}
{"Strand": "AATTTCAA", "E-score": -0.174}
{"Strand": "CATTGTCG", "E-score": -0.00923}
{"Strand": "CAGTACCA", "E-score": -0.196}
{"Strand": "ACCAACTG", "E-score": -0.129}
{"Strand": "CGTAATAC", "E-score": 0.0894}
{"Strand": "GGACCCAC", "E-score": -0.012}
{"Strand": "CAATAAGC", "E-score": 0.0304}
{"data": "Block 3", "target": "ABI1, truncated, D143A, DHFR fusion (Arabidopsis thaliana)", "technique": "DHFR PCA, deep sequencing", "medium": "yeast", "notes": "methotrexate growth selection, single substitutions", "added": "(+)-ABA 2500 µM", "baseline": "wild-type fitted maximum", "reading": "higher = stronger binding", "starting sequence": "PYL1, truncated, DHFR fusion (Arabidopsis thaliana); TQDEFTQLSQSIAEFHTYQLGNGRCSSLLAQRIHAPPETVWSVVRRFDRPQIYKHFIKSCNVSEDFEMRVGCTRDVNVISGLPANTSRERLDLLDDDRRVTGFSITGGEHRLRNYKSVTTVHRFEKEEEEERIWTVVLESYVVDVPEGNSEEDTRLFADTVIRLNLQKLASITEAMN"}
{"Change": "R98C", "relative binding score [%]": 95.5}
{"Change": "N114K", "relative binding score [%]": 97.8}
{"Change": "G102N", "relative binding score [%]": 39.6}
{"Change": "E125N", "relative binding score [%]": 107}
{"Change": "T135N", "relative binding score [%]": 22.2}
{"Change": "P83F", "relative binding score [%]": 41.8}
{"Change": "S59W", "relative binding score [%]": 91.9}
{"Change": "D65R", "relative binding score [%]": 94.7}
{"Change": "S117Y", "relative binding score [%]": 2.47}
{"Change": "H34Y", "relative binding score [%]": 98.7}
{"Change": "I79K", "relative binding score [%]": 96.6}
{"Change": "F5H", "relative binding score [%]": 102}
{"Change": "S171P", "relative binding score [%]": 56.2}
{"Change": "G23A", "relative binding score [%]": 93.4}
{"Change": "L166N", "relative binding score [%]": 66.6}
{"Change": "T106V", "relative binding score [%]": 108}
{"Change": "E38R", "relative binding score [%]": 91.9}
{"data": "Block 4", "target": "RNA binding protein fox-1 homolog 2, RRM domain, GST-SBP tag (RBFOX2, Homo sapiens, UniProt O43251-10, residues 100-194)", "technique": "RNA Bind-n-Seq", "form": "RNA", "medium": "in vitro", "tested at": "365 nM", "notes": "natural RNA segment, single round, ends assumed", "baseline": "no-protein control", "reading": "higher = stronger binding", "Target sequence (chain)": "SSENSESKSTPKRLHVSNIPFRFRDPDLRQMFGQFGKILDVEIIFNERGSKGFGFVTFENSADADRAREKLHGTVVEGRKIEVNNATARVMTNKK"}
{"Strand": "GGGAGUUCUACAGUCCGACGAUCUGCCUCAGAUCAGCCUGCGACUGCAAGAUUCUUACUGCAGUAGAGAACUCUUUUUCUCCCUUGUACUUUUUUUUGACCUGGCAUCUUUUUAUAGGGAAAAAUGGCCUUUGUGGAAUUCUCGGGUGCCAA", "RBNS enrichment (R)": 1.54}
{"Strand": "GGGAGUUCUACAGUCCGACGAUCAUUGUUAUUUCUGAGACAGAGUCUUGCUCUGUAGCUCAGGCUGGAGUGCAGUGGCUCAAUCUCAGCUCACCACAACCUCUGCCUCCUGGCUUCAAGCGAUUCUUCUGCCUUGGAAUUCUCGGGUGCCAA", "RBNS enrichment (R)": 0.174}
{"Strand": "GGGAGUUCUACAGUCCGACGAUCCCCAGCUCCUUAUACUGGGCACCCGGGCCCCUGACAGGAGUGGGUUGGGGGGCAGUUGGUUUGGUCUUCCUUCUAGGAGUAUGAGGGCAGCCUGUCUAGUUUGUAGAUCCUGGAAUUCUCGGGUGCCAA", "RBNS enrichment (R)": 0.93}
{"Strand": "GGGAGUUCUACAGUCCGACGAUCUUAACAACCCUUUAACAAACUAAAUAAUUUUUAAGCAGCCAGGAAAUUUUAGAGGACAGAUAUUUGACCAAAAGACUAUCAACUUUAAACAUUUAUUUUAUGGUUUCUUGUGGAAUUCUCGGGUGCCAA", "RBNS enrichment (R)": 0.683}
{"Strand": "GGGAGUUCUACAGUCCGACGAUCUAGGGCGCAUUAUAAAUGCAUUAAUCCUUAUAGUCAAUCCUGUGCCUAGGAUUUUGCAAGGGAACAGUUCACUGACUAGGAAAAGCACUACAUUUAAAACUCAGCAUUAGUGGAAUUCUCGGGUGCCAA", "RBNS enrichment (R)": 0.917}
{"Strand": "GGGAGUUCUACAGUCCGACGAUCUGGAGUCCUGGCUGGAGGUCCUCCCCCAGUGGCCUUCCUCCCUUCCUUUCACAGCCGGUCUCUCUGCCAGGAAAUGGGGGAAGGAACUAGAACCACCUGCACCUUGAGAUUGGAAUUCUCGGGUGCCAA", "RBNS enrichment (R)": 0.426}
{"Strand": "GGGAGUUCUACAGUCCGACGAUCAAAGAGGAUGAUUUUCCUCAGAGAGAAGUGCCAGCGCCCUCCAGAGCUGUGAUCCAGGAUGGCAUGCUCACGUGCGGAAUGCAAUUUUGCCACCGGUUUGUAAUGUGGGUUGGAAUUCUCGGGUGCCAA", "RBNS enrichment (R)": 1.06}
{"Strand": "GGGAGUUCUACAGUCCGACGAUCUGUAGCAGCGCAUCAGGCUUGAGAUGCCAGGGGUUUGAUACAGGCGUGGAAUCACUUUCCAGGCCAGAGCCCUAGAGGGGUGCUGGUCUCCCUGCUUUGCUGUAUGGUGAUGGAAUUCUCGGGUGCCAA", "RBNS enrichment (R)": 0.668}
{"Strand": "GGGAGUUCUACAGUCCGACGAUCUGUUUUAUUGACAAUGCUAUUGAGUAUUACAGUGUCUAGAAUACCCUGGAUGGCUUCUCUUGUCCACCCGAUCUCCCGUGUUACCAAUGUGUAUGGUCUCCUUCUCCCGAUGGAAUUCUCGGGUGCCAA", "RBNS enrichment (R)": 0.916}
{"Strand": "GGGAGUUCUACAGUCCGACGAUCGAAAAGUAAGGAGUUAGGUGGCUUGAUAAUAGGCAGGGAAACCAGAUUGUCGGGACUAUGACCUUUUUCUCCAGUAUGCUACCUGAUUUGUUUGGCUGGCCACUAGGUGGUGGAAUUCUCGGGUGCCAA", "RBNS enrichment (R)": 0.441}
{"Strand": "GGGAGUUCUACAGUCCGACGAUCUUUCUACAUCACAGGUCUCUCCCAGGGCUCGUUUUCCAAUCUCCAUCACUAGUCCUUACAGAACAGGAGCCAGAACUCUGGCAGACAUCAAAGCAAAAGCCCAGUUGGUCUGGAAUUCUCGGGUGCCAA", "RBNS enrichment (R)": 0.247}
{"Strand": "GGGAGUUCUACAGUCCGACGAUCGAAGCAGAAGCAGACAUCCCAUUGCACCAGGACAGAGUACGGGACUUCACUCGGCAAGCAGCCCUGGUCAGAUCUGGCAGUCUUGUUGCCGAAGAUUCUGCGUGUCCUUCUGGAAUUCUCGGGUGCCAA", "RBNS enrichment (R)": 0.851}
{"data": "Block 5", "target": "CCNB3, cyclin fold, Cln2 fusion (human)", "technique": "yeast growth competition, sequencing", "medium": "yeast", "notes": "weak parent motif", "baseline": "not given", "reading": "higher = stronger binding", "starting sequence": "ORC1 docking peptide (human); PRARKRLELGNLG; partner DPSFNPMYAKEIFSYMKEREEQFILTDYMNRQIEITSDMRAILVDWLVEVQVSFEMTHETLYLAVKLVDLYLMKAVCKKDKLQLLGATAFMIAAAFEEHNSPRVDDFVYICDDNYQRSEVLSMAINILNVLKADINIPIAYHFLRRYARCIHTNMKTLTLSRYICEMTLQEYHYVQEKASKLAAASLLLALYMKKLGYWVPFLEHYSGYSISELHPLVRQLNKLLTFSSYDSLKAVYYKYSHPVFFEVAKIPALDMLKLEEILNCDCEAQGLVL"}
{"Change": "PRARKRLELGTLG [N11T]", "normalised enrichment score": 0.321}
{"Change": "PRARKRCELGNLG [L7C]", "normalised enrichment score": -0.0342}
{"Change": "PRARKRLELGNDG [L12D]", "normalised enrichment score": -0.134}
{"Change": "PRARKRFELGNLG [L7F]", "normalised enrichment score": -0.168}
{"Change": "PRARKNLELGNLG [R6N]", "normalised enrichment score": 0.407}
{"Change": "PRARKRKELGNLG [L7K]", "normalised enrichment score": 0.547}
{"Change": "PRARKRLELGNKG [L12K]", "normalised enrichment score": 0.0367}
{"Change": "PRARKRLELGNNG [L12N]", "normalised enrichment score": 0.0323}
{"Change": "PRARKRLELFNLG [G10F]", "normalised enrichment score": 0.151}
{"Change": "PPARKRLELGNLG [R2P]", "normalised enrichment score": 0.111}
{"Change": "PRARKYLELGNLG [R6Y]", "normalised enrichment score": -0.0599}
{"Change": "PRIRKRLELGNLG [A3I]", "normalised enrichment score": -0.228}
{"Change": "PHARKRLELGNLG [R2H]", "normalised enrichment score": 0.173}
{"Change": "PKARKRLELGNLG [R2K]", "normalised enrichment score": -0.0413}
{"Change": "PRARKRMELGNLG [L7M]", "normalised enrichment score": 0.0133}
